# Published values of several laboratories.
# Parts stem from different laboratories: compare values within a part only. Values joined by “and” are separate records of one study, mostly repeats; a detail may differ.
# Chain of UniProt Q15418 (whole entry, looked up): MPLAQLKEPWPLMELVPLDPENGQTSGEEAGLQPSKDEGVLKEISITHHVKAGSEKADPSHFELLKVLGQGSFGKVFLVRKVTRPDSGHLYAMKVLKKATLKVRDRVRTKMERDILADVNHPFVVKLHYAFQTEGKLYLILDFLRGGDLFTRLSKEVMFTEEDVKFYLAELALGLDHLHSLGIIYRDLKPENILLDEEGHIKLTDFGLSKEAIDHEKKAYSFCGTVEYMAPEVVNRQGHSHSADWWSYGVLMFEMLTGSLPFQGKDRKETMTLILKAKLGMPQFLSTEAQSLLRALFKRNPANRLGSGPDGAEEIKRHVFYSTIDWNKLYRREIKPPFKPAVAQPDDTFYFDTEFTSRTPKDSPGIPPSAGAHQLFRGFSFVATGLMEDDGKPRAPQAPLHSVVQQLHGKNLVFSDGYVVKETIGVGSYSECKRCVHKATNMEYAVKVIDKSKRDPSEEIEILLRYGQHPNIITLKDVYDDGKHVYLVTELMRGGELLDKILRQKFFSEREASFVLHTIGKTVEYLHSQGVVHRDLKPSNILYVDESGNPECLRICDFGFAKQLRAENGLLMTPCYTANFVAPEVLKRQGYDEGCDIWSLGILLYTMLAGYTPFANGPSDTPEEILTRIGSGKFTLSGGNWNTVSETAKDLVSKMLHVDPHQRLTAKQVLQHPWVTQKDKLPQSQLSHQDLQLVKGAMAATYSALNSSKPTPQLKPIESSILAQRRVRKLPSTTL
# Chain of UniProt P45984 (whole entry, looked up): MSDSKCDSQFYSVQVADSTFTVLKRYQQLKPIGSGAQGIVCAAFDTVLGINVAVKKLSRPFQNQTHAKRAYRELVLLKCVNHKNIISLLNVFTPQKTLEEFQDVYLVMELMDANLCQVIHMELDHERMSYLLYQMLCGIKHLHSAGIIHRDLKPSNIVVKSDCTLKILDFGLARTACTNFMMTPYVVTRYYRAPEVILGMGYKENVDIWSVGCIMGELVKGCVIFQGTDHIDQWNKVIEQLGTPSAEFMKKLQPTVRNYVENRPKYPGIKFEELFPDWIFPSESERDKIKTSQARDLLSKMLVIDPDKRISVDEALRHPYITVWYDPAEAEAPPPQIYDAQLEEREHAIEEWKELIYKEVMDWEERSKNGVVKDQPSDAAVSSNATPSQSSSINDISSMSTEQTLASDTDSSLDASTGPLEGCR
# Chain of UniProt P54760 (whole entry, looked up): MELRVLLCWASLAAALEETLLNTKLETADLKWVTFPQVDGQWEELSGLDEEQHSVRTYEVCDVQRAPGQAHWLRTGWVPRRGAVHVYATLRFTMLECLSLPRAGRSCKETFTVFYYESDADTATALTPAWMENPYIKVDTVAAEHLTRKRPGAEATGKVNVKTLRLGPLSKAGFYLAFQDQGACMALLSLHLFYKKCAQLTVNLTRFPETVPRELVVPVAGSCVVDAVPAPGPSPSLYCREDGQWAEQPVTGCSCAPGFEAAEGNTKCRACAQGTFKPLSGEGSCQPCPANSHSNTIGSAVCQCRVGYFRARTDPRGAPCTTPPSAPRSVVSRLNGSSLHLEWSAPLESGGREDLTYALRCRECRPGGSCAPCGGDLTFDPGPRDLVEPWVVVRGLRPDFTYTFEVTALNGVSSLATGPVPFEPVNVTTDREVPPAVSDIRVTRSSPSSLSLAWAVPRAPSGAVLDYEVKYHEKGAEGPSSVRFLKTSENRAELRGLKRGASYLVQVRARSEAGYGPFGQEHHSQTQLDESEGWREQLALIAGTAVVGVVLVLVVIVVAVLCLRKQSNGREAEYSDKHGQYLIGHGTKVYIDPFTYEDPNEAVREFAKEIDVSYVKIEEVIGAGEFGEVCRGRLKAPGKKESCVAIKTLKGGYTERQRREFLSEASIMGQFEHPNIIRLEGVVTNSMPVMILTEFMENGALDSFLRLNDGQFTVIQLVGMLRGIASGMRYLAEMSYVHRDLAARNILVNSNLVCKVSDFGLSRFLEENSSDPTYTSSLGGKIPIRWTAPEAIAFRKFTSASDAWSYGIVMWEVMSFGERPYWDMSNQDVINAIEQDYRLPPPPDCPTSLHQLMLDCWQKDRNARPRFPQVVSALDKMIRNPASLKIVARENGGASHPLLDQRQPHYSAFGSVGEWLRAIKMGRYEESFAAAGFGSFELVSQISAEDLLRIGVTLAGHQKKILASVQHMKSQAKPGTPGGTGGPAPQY
# Chain of UniProt Q08881 (whole entry, looked up): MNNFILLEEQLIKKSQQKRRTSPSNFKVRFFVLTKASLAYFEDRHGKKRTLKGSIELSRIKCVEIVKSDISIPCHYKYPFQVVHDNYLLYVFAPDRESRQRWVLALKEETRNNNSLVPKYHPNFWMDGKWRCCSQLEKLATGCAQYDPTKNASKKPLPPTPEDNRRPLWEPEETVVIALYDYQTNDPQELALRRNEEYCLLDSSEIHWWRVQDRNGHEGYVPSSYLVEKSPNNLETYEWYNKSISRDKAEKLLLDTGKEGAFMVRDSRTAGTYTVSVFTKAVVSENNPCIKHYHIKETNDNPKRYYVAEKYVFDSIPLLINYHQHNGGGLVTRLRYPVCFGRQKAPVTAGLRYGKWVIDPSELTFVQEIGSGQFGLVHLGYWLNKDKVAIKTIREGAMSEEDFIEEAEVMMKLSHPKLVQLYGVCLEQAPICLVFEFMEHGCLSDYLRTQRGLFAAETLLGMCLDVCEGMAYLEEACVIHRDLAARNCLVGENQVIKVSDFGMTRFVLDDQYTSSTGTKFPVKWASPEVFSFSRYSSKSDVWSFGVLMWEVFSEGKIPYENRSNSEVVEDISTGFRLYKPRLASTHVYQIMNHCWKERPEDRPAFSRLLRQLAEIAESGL
# Chain of UniProt P00519 (whole entry, unmodified, looked up): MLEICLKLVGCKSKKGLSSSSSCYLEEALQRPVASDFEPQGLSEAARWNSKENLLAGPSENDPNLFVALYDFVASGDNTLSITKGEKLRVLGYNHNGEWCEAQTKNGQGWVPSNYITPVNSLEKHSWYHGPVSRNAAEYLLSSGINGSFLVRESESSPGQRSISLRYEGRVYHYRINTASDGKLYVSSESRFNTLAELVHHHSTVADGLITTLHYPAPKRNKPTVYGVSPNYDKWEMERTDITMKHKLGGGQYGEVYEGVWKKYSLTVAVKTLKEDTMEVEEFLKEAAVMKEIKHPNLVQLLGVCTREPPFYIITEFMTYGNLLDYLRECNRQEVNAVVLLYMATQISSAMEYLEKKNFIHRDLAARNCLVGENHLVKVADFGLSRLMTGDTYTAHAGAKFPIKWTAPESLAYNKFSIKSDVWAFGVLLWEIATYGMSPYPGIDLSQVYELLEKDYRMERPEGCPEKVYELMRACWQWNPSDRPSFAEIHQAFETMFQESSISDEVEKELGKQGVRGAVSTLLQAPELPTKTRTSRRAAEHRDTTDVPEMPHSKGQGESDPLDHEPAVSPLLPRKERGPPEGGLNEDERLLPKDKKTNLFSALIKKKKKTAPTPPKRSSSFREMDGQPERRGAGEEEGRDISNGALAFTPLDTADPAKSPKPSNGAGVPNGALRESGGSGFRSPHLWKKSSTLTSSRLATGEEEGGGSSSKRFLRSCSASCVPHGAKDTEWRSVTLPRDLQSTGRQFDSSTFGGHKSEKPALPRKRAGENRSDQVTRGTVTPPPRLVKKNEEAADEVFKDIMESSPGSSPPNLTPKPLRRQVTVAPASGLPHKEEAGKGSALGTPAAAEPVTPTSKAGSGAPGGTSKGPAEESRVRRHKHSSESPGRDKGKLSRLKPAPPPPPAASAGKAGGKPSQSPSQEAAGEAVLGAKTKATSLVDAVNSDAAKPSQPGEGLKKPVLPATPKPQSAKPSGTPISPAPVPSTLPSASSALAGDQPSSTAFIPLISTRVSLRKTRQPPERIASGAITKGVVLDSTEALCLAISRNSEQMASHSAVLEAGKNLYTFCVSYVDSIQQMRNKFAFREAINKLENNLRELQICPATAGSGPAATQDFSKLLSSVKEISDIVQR
# Chain of UniProt Q00526 (whole entry, looked up): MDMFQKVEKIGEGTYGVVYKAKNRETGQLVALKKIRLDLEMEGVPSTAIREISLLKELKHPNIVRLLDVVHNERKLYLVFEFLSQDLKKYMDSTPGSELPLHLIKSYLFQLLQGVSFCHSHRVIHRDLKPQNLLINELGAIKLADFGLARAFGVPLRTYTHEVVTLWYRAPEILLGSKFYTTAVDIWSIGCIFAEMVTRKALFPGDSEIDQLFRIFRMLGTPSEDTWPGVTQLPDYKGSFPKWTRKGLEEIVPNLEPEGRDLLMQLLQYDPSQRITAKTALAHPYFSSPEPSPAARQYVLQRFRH

# Sample 1
# SMILES: CC(C)n1cnc(-c2ccc(F)cc2)c1-c1ncc(C(=O)Nc2ccc(N3CCN(C)CC3)cc2)[nH]1
# Method: phase 2a trial
# Host: idiopathic pulmonary fibrosis patients
dose,setting,patients with bronchitis [%]
all arms pooled,grade 1 emergent event,0
60 mg once daily,grade 1 emergent event,0
30 mg once daily,grade 4 emergent event,0
60 mg once daily,grade 2 emergent event,0
all arms pooled,grade 4 emergent event,0
60 mg once daily,grade 5 emergent event,0
30 mg once daily,grade 3 emergent event,0

# Sample 2
# Target: Calcium/calmodulin-dependent protein kinase type II subunit alpha (CAMK2A, Homo sapiens, UniProt Q9UQM7)
# Chain of UniProt Q9UQM7 (whole entry, looked up): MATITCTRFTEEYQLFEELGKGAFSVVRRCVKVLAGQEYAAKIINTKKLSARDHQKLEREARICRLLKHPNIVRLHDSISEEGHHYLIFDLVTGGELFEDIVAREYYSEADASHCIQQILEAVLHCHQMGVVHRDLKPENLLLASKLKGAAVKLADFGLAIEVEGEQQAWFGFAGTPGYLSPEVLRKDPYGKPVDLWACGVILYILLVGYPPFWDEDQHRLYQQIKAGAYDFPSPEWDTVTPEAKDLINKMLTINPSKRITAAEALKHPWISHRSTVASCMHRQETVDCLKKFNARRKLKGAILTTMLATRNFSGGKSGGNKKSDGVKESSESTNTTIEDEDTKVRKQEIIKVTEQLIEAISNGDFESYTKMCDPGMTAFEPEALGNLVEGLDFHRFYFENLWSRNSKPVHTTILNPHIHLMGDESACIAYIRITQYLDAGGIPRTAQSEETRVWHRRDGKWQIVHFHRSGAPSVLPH
# Observed: enzyme activity
# Mode: inhibitor
# Concentration: 10 µM
Structure (SMILES),inhibition
COc1cc(C2Oc3ccc([C@H]4Oc5cc(O)cc(O)c5C(=O)[C@@H]4O)cc3OC2CO)ccc1O (some centres unmarked),-76%
Cc1coc2c1C(=O)c1ccc3c(c1C2=O)CCCC3(C)C,24%
CC(=O)Nc1cccc(-n2c(=O)n(C3CC3)c(=O)c3c(Nc4ccc(I)cc4F)n(C)c(=O)c(C)c32)c1,0.01% and -0.12%
Cc1c(O)c(=O)ccn1C,-3%
CCCCOc1cc(C(=O)OCCN(CC)CC)ccc1N,5%
CN(CCCN1c2ccccc2CCc2ccccc21)CC(=O)c1ccc(Cl)cc1,8%
C=C1C(=O)O[C@H]2C1CC[C@@](C)(O)C13C=CC(C)(C21)C1(C3)C(=O)O[C@@H]2C3C(C)=CCC3[C@](C)(O)[C@H](OC(C)=O)CC21 (some centres unmarked),-26%
Cc1ccc(S(=O)(=O)NC(=O)NN2CCCCCC2)cc1,-11%
O=C(O)/C=C/c1ccc(O)cc1,-63%
C=CC1CNC(=S)O1 (racemic),-16%
COc1cc(CO)ccc1O,2%

# Sample 3
# SMILES: O=C(Nc1ccc(Oc2ccc(F)cc2)cc1)N1CCc2ncccc2[C@H]1c1ccc(F)cc1
# Method: competition with immobilised ligand
# Concentration: 1 µM
target,observed,remaining binding [%]
"TIE1 (Homo sapiens, UniProt P35590)",cell-free assay,85
"CLK3 (Homo sapiens, UniProt P49761)",cell-free assay,82
"NIM1K (Homo sapiens, UniProt Q8IY84)",cell-free assay,80
"MAPK9 (Homo sapiens, UniProt P45984)",cell-free assay,88
"PIM3 (Homo sapiens, UniProt Q86V86)",cell-free assay,79
"EPHA6 (Homo sapiens, UniProt Q9UF33)",cell-free assay,100
"RPS6KB1 (Homo sapiens, UniProt P23443)",cell-free assay,100
"Tyrosine-protein kinase ABL1, phosphorylated (ABL1, Homo sapiens, UniProt P00519, E255K)",binding,100
"Ribosomal protein S6 kinase alpha-1, C-terminal kinase domain (RPS6KA1, Homo sapiens, UniProt Q15418)",cell-free assay,92
"Ribosomal protein S6 kinase alpha-1, N-terminal kinase domain (RPS6KA1, Homo sapiens, UniProt Q15418)",cell-free assay,79
"CSK (Homo sapiens, UniProt P41240)",cell-free assay,100
"NEK9 (Homo sapiens, UniProt Q8TD19)",cell-free assay,88
"MARK2 (Homo sapiens, UniProt Q7KZI7)",cell-free assay,82
"PIK3CA (Homo sapiens, UniProt P42336, C420R)",cell-free assay,100
"CDK3 (Homo sapiens, UniProt Q00526)",cell-free assay,93
"EPHB4 (Homo sapiens, UniProt P54760)",cell-free assay,100
"MAST1 (Homo sapiens, UniProt Q9Y2H9)",cell-free assay,79
"MAP3K9 (Homo sapiens, UniProt P80192)",cell-free assay,100
"TSSK1B (Homo sapiens, UniProt Q9BXA7)",cell-free assay,87
"ITK (Homo sapiens, UniProt Q08881)",cell-free assay,96

# Sample 4
# Host: mouse
# Sample: microsomes or S9
# Concentration: 2 µM
# Time: 0.5 h
SMILES,remaining compound
COCC(=O)Cc1nc(N)nc(Nc2ccc(C)cc2)n1,18.5%
Cc1nn(CCc2nn[nH]n2)c(C)c1Br,23.9%
O=S1(=O)N=C(Nc2ccc3c(c2)Cc2ccccc2-3)c2ccccc21,> 99.9%
c1ccc(Cc2nc(Cn3cc(-c4cncnc4)nn3)cs2)cc1,89%
Cc1ccccc1-c1noc(-c2cc3c(COC(=O)C(C)C)cnc(C)c3oc2=O)n1,39.4%
O=c1[nH]c(-c2ccc(F)cc2)c(-c2ccc(F)cc2)c(=O)n1Cc1ccc(Cl)cc1Cl,77.6%
CC(=O)NCCOC(=O)c1ccc(Cl)c(S(=O)(=O)N(C)C)c1,25.6%
Cc1ccc(C(=O)Cn2nc3n(Cc4ccccc4)c(=O)c4ccc(C(=O)NC(C)C)cc4n3c2=O)cc1,38.4%
Clc1ncccc1-c1nc2cc3c(cc2c2ccnn12)OCO3,< 1%
Brc1ccc(C2CC(c3ccc(Br)cc3)n3ncnc3N2)cc1 (centres unmarked),42.6%
CN1CCC(=C2c3ccccc3CCc3sccc32)CC1,11.9%
NCC1=CCCN(c2nc3c(cc2F)c(=O)c(C(=O)O)cn3-c2ncc(F)cc2Cl)C1,43%

# For quick reference, copied from above (sample 4):
SMILES,remaining compound
Brc1ccc(C2CC(c3ccc(Br)cc3)n3ncnc3N2)cc1 (centres unmarked),42.6%
NCC1=CCCN(c2nc3c(cc2F)c(=O)c(C(=O)O)cn3-c2ncc(F)cc2Cl)C1,43%
Cc1ccccc1-c1noc(-c2cc3c(COC(=O)C(C)C)cnc(C)c3oc2=O)n1,39.4%
Cc1ccc(C(=O)Cn2nc3n(Cc4ccccc4)c(=O)c4ccc(C(=O)NC(C)C)cc4n3c2=O)cc1,38.4%
